Measurements from different studies.
Parts stem from different laboratories: compare values within a part only. Values joined by “and” are separate records of one study, mostly repeats; a detail may differ.
Chain of UniProt P25100 (whole entry, looked up): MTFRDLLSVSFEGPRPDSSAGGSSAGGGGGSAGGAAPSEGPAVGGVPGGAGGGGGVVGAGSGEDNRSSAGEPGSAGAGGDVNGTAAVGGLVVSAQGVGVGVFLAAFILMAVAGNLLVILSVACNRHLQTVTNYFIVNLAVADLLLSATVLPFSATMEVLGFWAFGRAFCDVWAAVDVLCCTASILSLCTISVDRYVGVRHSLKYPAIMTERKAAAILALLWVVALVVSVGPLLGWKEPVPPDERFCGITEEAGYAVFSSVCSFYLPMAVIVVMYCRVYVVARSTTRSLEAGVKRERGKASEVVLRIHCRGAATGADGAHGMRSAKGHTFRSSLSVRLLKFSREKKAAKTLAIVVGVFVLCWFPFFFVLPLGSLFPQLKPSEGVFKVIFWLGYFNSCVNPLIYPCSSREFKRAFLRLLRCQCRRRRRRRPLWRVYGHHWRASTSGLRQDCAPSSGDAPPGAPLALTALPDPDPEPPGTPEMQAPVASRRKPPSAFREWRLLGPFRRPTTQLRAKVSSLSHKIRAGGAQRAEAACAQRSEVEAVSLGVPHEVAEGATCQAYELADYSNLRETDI
Chain of UniProt Q9NYY3 (whole entry, looked up): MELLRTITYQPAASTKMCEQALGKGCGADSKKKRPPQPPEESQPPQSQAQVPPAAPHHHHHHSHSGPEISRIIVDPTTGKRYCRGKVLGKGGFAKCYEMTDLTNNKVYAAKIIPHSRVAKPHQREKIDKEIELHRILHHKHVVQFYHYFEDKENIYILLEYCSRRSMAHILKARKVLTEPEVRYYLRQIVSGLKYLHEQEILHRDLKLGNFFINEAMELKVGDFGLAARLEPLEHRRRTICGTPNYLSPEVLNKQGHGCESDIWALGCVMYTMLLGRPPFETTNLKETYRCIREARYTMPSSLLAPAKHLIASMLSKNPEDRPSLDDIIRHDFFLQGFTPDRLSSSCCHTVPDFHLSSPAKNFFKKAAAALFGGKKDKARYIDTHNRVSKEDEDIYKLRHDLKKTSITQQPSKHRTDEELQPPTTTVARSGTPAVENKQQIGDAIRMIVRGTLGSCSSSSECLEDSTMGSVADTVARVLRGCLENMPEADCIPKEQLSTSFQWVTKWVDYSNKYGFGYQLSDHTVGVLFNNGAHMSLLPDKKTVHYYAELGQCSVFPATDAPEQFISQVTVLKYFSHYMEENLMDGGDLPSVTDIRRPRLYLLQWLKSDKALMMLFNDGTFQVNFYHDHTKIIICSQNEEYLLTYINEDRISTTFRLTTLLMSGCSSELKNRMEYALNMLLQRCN
Chain of UniProt P41743 (whole entry, looked up): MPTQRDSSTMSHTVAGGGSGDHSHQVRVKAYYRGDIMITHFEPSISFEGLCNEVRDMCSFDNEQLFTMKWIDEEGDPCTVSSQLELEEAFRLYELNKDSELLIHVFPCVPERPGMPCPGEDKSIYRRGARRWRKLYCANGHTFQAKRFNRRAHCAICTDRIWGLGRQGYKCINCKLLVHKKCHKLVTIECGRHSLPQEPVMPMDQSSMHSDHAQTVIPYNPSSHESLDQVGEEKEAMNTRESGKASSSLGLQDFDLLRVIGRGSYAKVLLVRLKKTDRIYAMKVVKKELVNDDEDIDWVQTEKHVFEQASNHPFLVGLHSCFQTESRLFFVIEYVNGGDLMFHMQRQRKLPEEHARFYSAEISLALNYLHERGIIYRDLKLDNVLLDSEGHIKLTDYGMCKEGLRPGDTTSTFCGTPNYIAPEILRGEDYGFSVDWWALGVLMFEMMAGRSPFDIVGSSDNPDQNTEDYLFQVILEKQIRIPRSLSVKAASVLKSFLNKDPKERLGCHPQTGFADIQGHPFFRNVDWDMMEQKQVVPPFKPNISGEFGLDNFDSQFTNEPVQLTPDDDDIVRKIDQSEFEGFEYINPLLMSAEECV

Study 1
Structure (SMILES): CNC(=O)c1cc(C(=O)N[C@H]2[C@@H]3COC[C@@H]32)cc2c1O[C@H](CF)[C@H]2c1ccccc1
Tested at: 10 µM
target	assay	inhibition
HRH1 (Homo sapiens, UniProt P35367)	binding, radioligand binding	-26.9%
HTR3A (Homo sapiens, UniProt P46098)	cell-free assay	20.2%
ADRB3 (Homo sapiens, UniProt P13945)	binding, radioligand binding	15.5%
ADRA2C (Homo sapiens, UniProt P18825)	binding, radioligand binding	8.26%
ADRA1D (Homo sapiens, UniProt P25100)	binding, radioligand binding	3.51%
DRD1 (Homo sapiens, UniProt P21728)	binding, radioligand binding	9.7%
CHRM2 (Homo sapiens, UniProt P08172)	binding, radioligand binding	-5.52%
CHRM4 (Homo sapiens, UniProt P08173)	binding, radioligand binding	2.78%
HRH2 (Homo sapiens, UniProt P25021)	binding, radioligand binding	-3.94%
ADRA1B (Homo sapiens, UniProt P35368)	binding, radioligand binding	1.49%
ADRA2B (Homo sapiens, UniProt P18089)	binding, radioligand binding	12.5%
HTR7 (Homo sapiens, UniProt P34969)	binding, radioligand binding	13.6%
HRH4 (Homo sapiens, UniProt Q9H3N8)	binding, radioligand binding	9.36%

Study 2
Target: Calcium/calmodulin-dependent protein kinase type II subunit alpha (CAMK2A, Homo sapiens, UniProt Q9UQM7)
Chain of UniProt Q9UQM7 (whole entry, looked up): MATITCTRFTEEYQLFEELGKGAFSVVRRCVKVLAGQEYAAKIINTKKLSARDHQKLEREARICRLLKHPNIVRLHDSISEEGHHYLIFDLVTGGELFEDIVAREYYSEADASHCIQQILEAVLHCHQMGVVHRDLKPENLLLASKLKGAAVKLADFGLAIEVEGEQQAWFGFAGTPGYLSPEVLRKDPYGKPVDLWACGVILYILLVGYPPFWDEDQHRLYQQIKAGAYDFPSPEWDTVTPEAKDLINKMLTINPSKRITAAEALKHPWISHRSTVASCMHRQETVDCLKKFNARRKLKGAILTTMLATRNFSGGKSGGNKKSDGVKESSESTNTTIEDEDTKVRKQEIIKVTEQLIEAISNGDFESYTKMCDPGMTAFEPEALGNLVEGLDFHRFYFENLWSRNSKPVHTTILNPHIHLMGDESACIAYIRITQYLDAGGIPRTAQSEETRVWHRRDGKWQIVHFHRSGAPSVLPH
Observed: enzyme activity
Action: inhibitor
Tested at: 10 µM
Structure (SMILES)	inhibition
CN1CCN(C2=Nc3cc(Cl)ccc3Nc3ccccc32)CC1	-13%
CC(C)c1ccc(C=O)cc1	-10%
CCCCCCCCCCCCCCCC(=O)O	26%
C[N+]1(C)CCC(OC(=O)C(O)(c2ccccc2)C2CCCC2)C1 (stereo not shown)	2%
CC/C=C\C/C=C\C/C=C\CCCCCCCC(=O)OCC	-26%
O[C@@](Cn1cnnn1)(c1ccc(F)cc1F)C(F)(F)c1ccc(-c2ccc(OCC(F)(F)F)cc2)cn1	-2%
CN1[C@@H](CC(=O)c2ccccc2)CCC[C@H]1C[C@H](O)c1ccccc1	-9%
COc1cc2oc(-c3ccc(O)c(O)c3)c(OC)c(=O)c2c(O)c1OC	2%
CCC(C(=O)O)c1ccccc1 (stereo not shown)	-40%
C[n+]1cc2c3c(ccc2c2ccc4cc5c(cc4c21)OCO5)OCO3	9%
CC(C)=CCC[C@](C)(O)[C@@H]1CC=C(C)CC1	11%
COc1ccc(-c2cc(=O)c3c(O)c(OC)c(O[C@@H]4O[C@H](CO[C@@H]5O[C@@H](C)[C@H](O)[C@@H](O)[C@H]5O)[C@@H](O)[C@H](O)[C@H]4O)cc3o2)cc1	3%
C=C(CC(=O)O)C(=O)O	-22%
CC(=O)[C@H]1CC[C@H]2[C@@H]3CC=C4C[C@@H](OS(=O)(=O)O)CC[C@]4(C)[C@H]3CC[C@]12C	14%
COc1ccccc1OCC(O)CO (stereo not shown)	0%
CC(C)=CCC[C@](C)(O[C@@H]1O[C@H](CO)[C@@H](O)[C@H](O)[C@H]1O)[C@H]1CC[C@]2(C)[C@@H]1[C@H](O)C[C@@H]1[C@@]3(C)CC[C@H](O)C(C)(C)[C@@H]3CC[C@]12C	-25%

Study 3
Target: DNA polymerase theta, ATPase domain (POLQ, Homo sapiens, UniProt O75417)
Chain of UniProt O75417 (whole entry, unmodified, looked up): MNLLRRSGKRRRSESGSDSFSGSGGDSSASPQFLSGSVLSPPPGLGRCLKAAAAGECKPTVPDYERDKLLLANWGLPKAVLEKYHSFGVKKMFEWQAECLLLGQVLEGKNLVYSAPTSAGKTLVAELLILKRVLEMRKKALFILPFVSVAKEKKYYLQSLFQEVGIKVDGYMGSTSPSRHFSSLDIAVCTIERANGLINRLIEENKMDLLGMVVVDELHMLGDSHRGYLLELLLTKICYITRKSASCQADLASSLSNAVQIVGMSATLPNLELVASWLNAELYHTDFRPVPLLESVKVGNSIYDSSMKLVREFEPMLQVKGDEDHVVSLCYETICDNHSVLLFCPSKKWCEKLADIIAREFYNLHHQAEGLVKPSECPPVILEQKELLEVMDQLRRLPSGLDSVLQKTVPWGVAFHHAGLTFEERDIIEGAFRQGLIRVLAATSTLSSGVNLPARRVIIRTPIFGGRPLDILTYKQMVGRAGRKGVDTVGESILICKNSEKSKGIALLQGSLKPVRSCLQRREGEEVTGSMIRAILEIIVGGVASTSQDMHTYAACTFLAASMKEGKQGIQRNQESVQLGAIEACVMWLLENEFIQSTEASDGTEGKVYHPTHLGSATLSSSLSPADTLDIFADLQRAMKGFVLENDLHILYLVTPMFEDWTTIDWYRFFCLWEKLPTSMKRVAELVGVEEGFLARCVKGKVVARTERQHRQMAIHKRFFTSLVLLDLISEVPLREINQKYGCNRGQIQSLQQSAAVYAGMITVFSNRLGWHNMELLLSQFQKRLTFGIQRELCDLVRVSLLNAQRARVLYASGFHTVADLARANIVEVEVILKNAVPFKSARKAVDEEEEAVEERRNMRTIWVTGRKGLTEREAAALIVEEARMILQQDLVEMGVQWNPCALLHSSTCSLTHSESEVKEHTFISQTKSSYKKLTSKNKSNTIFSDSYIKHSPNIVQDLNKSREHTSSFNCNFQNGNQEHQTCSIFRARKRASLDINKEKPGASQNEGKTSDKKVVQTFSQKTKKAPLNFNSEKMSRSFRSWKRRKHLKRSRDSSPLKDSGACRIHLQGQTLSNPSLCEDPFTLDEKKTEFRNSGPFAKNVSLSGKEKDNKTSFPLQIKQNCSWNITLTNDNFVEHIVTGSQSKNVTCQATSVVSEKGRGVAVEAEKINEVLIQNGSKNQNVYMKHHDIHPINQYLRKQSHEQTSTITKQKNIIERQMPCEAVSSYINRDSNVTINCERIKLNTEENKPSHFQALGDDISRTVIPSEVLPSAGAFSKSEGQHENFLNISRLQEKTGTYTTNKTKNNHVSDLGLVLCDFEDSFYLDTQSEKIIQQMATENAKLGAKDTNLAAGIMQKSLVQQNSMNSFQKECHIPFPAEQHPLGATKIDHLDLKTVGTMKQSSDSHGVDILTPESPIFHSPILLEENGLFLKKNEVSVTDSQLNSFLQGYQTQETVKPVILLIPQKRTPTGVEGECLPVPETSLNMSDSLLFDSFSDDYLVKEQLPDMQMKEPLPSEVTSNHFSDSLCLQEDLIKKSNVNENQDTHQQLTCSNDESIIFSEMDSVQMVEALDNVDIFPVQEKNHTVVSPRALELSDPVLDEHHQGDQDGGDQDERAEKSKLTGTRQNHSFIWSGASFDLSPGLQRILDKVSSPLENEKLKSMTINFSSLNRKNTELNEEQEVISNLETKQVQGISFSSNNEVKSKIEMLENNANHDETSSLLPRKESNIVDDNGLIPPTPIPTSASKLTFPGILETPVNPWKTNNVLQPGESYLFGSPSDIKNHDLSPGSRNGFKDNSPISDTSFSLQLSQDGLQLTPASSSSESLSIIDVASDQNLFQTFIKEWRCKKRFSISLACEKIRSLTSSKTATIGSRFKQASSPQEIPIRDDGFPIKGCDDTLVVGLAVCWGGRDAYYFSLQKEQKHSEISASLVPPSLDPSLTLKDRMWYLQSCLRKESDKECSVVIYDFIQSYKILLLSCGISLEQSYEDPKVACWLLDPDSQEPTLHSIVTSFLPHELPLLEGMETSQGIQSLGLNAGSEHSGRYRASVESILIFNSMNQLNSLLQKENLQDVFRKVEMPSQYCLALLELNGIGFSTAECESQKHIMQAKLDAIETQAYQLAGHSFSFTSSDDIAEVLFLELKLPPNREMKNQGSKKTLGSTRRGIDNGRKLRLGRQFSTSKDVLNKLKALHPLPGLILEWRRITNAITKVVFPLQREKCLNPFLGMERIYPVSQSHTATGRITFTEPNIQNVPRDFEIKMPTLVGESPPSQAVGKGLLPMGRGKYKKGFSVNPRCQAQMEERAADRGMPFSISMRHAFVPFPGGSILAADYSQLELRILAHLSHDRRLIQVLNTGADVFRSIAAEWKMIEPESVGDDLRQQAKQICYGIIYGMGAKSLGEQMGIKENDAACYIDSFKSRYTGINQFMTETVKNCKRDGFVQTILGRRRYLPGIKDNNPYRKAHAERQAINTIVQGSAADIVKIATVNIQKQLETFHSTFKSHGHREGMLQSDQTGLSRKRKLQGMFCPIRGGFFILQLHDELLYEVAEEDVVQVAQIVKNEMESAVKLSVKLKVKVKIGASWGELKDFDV
Observed: enzyme activity
Action: inhibitor
Tested at: 77 µM
Baseline: untreated
Structure (SMILES)	remaining activity
NCc1ccc(S(N)(=O)=O)cc1	98.5%
Oc1ccc(O)cc1	115%
CN(C)c1cc(NC(=O)CNC(C)(C)C)c(O)c2c1C[C@H]1C[C@H]3[C@H](N(C)C)C(O)=C(C(N)=O)C(=O)[C@@]3(O)C(O)=C1C2=O	96.6%
O=C(/C=C/c1ccc(O)c(O)c1)OCCc1ccccc1	97.6% and 100%
NCCC(=O)NCCc1c[nH]cn1	98.3%
O=C(O)COC(=O)Cc1ccccc1Nc1c(Cl)cccc1Cl	106%
NC(=O)c1ncn([C@@H]2O[C@H](CO)[C@@H](O)[C@H]2O)c1O	99%
CN1CCC(OC(c2ccccc2)c2ccccc2)CC1	101%
COc1ccc(-c2ccc(=N)n(CCCC(=O)O)n2)cc1	101%
COc1ccc(S(=O)(=O)Nc2cccnc2Nc2ccc(O)cc2)cc1	98.5%
CCOC(=O)[C@H](CCc1ccccc1)N[C@H]1CCc2ccccc2N(CC(=O)O)C1=O	97.2%
COc1cc2/c(=N/c3ccc(Br)cc3F)nc[nH]c2cc1OCC1CCN(C)CC1	77.2%
CCCCS(=N)(=O)CCC(N)C(=O)O (racemic)	92.6%
CSc1ccc(C(=O)c2[nH]c(=O)[nH]c2C)cc1	98.8%
C#CCN[C@@H]1CCc2ccccc21	103%
CN(CCCOc1ccc(Cc2ccccc2)cc1)CCC(=O)O	102%
O=C1OC(CN2CCOCC2)CN1/N=C/c1ccc([N+](=O)[O-])o1 (stereo not shown)	101%

Study 4
Compound: COc1ccc(-c2cnc3c(-c4ccsc4)cnn3c2)cc1
Observed: enzyme activity
Action: inhibitor
Tested at: 0.5 µM
Baseline: control
target	remaining activity
LYN (Homo sapiens, UniProt P07948)	81.8%
KIT (Homo sapiens, UniProt P10721)	36.2%
CSNK2A1 (Homo sapiens, UniProt P68400)	101%
MAPK13 (Homo sapiens, UniProt O15264)	93.5%
CHEK1 (Homo sapiens, UniProt O14757)	90.8%
WNK2 (Homo sapiens, UniProt Q9Y3S1)	103%
CSNK1A1 (Homo sapiens, UniProt P48729)	101%
MKNK2 (Homo sapiens, UniProt Q9HBH9)	37.5%
IRAK4 (Homo sapiens, UniProt Q9NWZ3)	82.1%
MAP4K2 (Homo sapiens, UniProt Q12851)	74.8%
PRKCD (Homo sapiens, UniProt Q05655)	98.9%
STK38 (Homo sapiens, UniProt Q15208)	102%
PRKCI (Homo sapiens, UniProt P41743)	96.2%
EPHA5 (Homo sapiens, UniProt P54756)	89.1%
MAP2K6 (Homo sapiens, UniProt P52564)	95.9%
MAP3K10 (Homo sapiens, UniProt Q02779)	94.2%
PLK2 (Homo sapiens, UniProt Q9NYY3)	100%
AKT3 (Homo sapiens, UniProt Q9Y243)	95.4%
PRKG1 (Homo sapiens, UniProt Q13976)	86.5%
LRRK2 (Homo sapiens, UniProt Q5S007)	68.1%
MAPK12 (Homo sapiens, UniProt P53778)	94.8%
NEK4 (Homo sapiens, UniProt P51957)	80%
Cyclin-dependent kinase 9, with cyclin T1 (CDK9, Homo sapiens, UniProt P50750)	73.8%
BTK (Homo sapiens, UniProt Q06187)	97.1%

Repeated from above (study 3):
Structure (SMILES)	remaining activity
NCc1ccc(S(N)(=O)=O)cc1	98.5%
Oc1ccc(O)cc1	115%
CN(C)c1cc(NC(=O)CNC(C)(C)C)c(O)c2c1C[C@H]1C[C@H]3[C@H](N(C)C)C(O)=C(C(N)=O)C(=O)[C@@]3(O)C(O)=C1C2=O	96.6%
O=C(/C=C/c1ccc(O)c(O)c1)OCCc1ccccc1	97.6% and 100%
NCCC(=O)NCCc1c[nH]cn1	98.3%
O=C(O)COC(=O)Cc1ccccc1Nc1c(Cl)cccc1Cl	106%
NC(=O)c1ncn([C@@H]2O[C@H](CO)[C@@H](O)[C@H]2O)c1O	99%
CN1CCC(OC(c2ccccc2)c2ccccc2)CC1	101%
COc1ccc(-c2ccc(=N)n(CCCC(=O)O)n2)cc1	101%
COc1ccc(S(=O)(=O)Nc2cccnc2Nc2ccc(O)cc2)cc1	98.5%
